# Results collected from several papers.
# Numbered parts are unrelated; each lists some results of a single study. Changes are numbered by the printed parent chain.

# Set 1
# Target: CCNE1, cyclin fold, Cln2 fusion (human)
# Technique: yeast growth competition, sequencing
# Matrix: yeast
# Setting: strong parent motif
# Relative to: not given
# Reading: higher = stronger binding
# Starting sequence: RBL1 docking peptide (human); GSAKRRLFGEDPP; partner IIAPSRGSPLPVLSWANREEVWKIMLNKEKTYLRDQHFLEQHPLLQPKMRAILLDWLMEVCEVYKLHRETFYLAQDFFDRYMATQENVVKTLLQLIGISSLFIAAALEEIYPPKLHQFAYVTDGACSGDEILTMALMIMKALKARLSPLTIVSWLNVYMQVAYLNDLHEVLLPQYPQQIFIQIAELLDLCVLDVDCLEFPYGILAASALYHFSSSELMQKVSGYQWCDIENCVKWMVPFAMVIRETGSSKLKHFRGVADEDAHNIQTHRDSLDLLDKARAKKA
Change,normalised enrichment score
F8E,-0.519
D11L,4.68
R6P,-0.28
K4I,4.7
A3E,2.67

# Set 2
# Target: RNA binding protein fox-1 homolog 2, RRM domain, GST-SBP tag (RBFOX2, Homo sapiens, UniProt O43251-10, residues 100-194)
# Technique: RNA Bind-n-Seq
# Form: RNA
# Matrix: in vitro
# Tested at: 365 nM
# Setting: natural RNA segment, single round, ends assumed
# Relative to: no-protein control
# Reading: higher = stronger binding
# Constant ends, left off below: GGGAGUUCUACAGUCCGACGAUC … UGGAAUUCUCGGGUGCCAA
# Target sequence (chain): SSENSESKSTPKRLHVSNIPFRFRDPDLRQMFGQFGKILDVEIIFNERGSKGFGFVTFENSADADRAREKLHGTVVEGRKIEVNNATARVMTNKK
Strand,RBNS enrichment (R)
GCACUCUAGGGUGAACCAAGCUAUAAAAGCCCAUGCUUAAAUAAAAAUUAUGUCCAAAAGCCAUUGAGUUCAUUGGUCUUCAUUCAUUUUUAAUUAAAUUUUAUGUAAGA,0.342
CCUCUCCCCUGUGACUGCAGCUGCUGAGCCAUAAAGUUGGACCAUAUGACACAAGGCCAAUGGGGACCGGAGUACCAUGGCUCCUGUCCUUGGAUGGUCUCUUGUCCCUG,0.321
GAGUUGUCUGUCCGUCCGUGGAGCCAGUCCUAGCCACAUUAUUGACAGUCUUGCAUUUUGUUUUGUCUCGUGAUGGUGGUGGUGGUAGGGGUACGCUUAGGUGGGCAGUC,1.92
UGGGAAAACACAAAAAAUUACACAACCCAGCAACAACAAAAGAACUAGUCCUCUUAGAAUUUCUUGCGCUUUGAUUUUUUUAGGGCUUGUGCCCUGUUUCACUUAUAGGG,0.941
CUGGGAGUUCCCUGAACAUCUGUGUGUGUCCCCCUAUGCUCCAGUAUGGAAGAAUGGGGUGGAGGGUCGCCACACCCGGCUCCCCCUGCUUCUCAGCCCCGGGCCUGCCU,1.04
CCUGUAUUCCAGAAACUCACUUGAUUCUGUAUUGGUAAAUGCCUGGCUUCUUCACCAACUCCAUAGGUAACACAGCAAAGGAAAACCACAGAAGACAGAAGACAGGCAUC,0.364

# Set 3
# Target: Histone acetyltransferase KAT6A, winged helix 2, GST fusion (KAT6A, Homo sapiens, UniProt Q92794, residues 85-181)
# Technique: protein binding microarray
# Form: double-stranded DNA, one strand shown
# Matrix: in vitro
# Tested at: not given
# Setting: 8-mer, flanks averaged, mean of 2 arrays, mostly near background
# Relative to: not given
# Reading: higher = stronger binding
# Construct (chain): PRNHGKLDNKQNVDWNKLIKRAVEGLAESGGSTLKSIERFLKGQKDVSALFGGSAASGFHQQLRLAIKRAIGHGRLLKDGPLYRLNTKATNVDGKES
Strand,E-score
ATAGGCGA,0.0515
GCTCATTA,-0.0224
GACACGAA,0.0712
ACCCCTGC,-0.0902
CGCAAAAA,0.149
ACTAGGCC,-0.14
CGCCTTTA,0.172

# Mixed results
Molecule,target,assay,system,setting,how to read,endpoint,result
"PhoQ, residues 284 288 289 292 302 303 SVHLDV","PhoP, residues 12 14 15 18 19 HLGGL (Escherichia coli, UniProt P23836)","Sort-seq, item: YFP reporter",E. coli,"PhoQ-PhoP variant library, together with: 10 µM Mg2+","relative to: high Mg2+ state, higher = stronger signaling",fold induction,1.69

# A few entries again (set 2):
Strand,RBNS enrichment (R)
UGGGAAAACACAAAAAAUUACACAACCCAGCAACAACAAAAGAACUAGUCCUCUUAGAAUUUCUUGCGCUUUGAUUUUUUUAGGGCUUGUGCCCUGUUUCACUUAUAGGG,0.941
GAGUUGUCUGUCCGUCCGUGGAGCCAGUCCUAGCCACAUUAUUGACAGUCUUGCAUUUUGUUUUGUCUCGUGAUGGUGGUGGUGGUAGGGGUACGCUUAGGUGGGCAGUC,1.92
GCACUCUAGGGUGAACCAAGCUAUAAAAGCCCAUGCUUAAAUAAAAAUUAUGUCCAAAAGCCAUUGAGUUCAUUGGUCUUCAUUCAUUUUUAAUUAAAUUUUAUGUAAGA,0.342
